Measurements pooled from the literature.
Parts stem from different laboratories: compare values within a part only. Positions count from the first letter of the parent shown.

Series 1
Target: CCNE1, cyclin fold, Cln2 fusion (human)
Method: yeast growth competition, sequencing
Matrix: yeast
Setting: strong parent motif
Relative to: not given
Reading: higher = stronger binding
Starting sequence: viral docking peptide; KGVKRKLFAEDSS
Change	normalised enrichment score
K4R	7.74
V3P	7.01
S12V	7.74
V3W	5.24
F8N	0.305
V3Y	6.74

Series 2
Target: Histone acetyltransferase KAT6A, both winged helices, GST fusion (KAT6A, Homo sapiens, UniProt Q92794, residues 1-181)
Method: protein binding microarray
Form: double-stranded DNA, one strand shown
Matrix: in vitro
Tested at: not given
Setting: 8-mer, flanks averaged, mean of 2 arrays, mostly near background
Relative to: not given
Reading: higher = stronger binding
Residues (chain): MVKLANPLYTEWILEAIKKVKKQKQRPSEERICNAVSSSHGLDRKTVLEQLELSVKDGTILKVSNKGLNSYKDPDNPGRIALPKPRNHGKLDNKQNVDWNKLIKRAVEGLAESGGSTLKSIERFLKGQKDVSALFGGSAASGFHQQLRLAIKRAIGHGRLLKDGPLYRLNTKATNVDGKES
Strand	E-score
CTGACGAA	-0.027
GGACTCCA	-0.0103
CATGCATC	0.0536
ACGCCCGG	0.244
AAGGGCCT	-0.161
ACCATCTA	-0.23
TATCCCAA	-0.0758
GCGCCTGA	0.165

Series 3
Target: UBE2A UBC core domain (UniProt P49459)
Chain of UniProt P49459 (whole entry, looked up): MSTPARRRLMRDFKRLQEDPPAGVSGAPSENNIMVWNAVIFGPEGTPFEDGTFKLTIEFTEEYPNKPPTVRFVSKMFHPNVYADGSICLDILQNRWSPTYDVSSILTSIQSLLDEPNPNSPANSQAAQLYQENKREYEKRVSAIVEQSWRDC
Method: yeast two-hybrid
Matrix: yeast
Setting: mostly zero background
Relative to: not given
Reading: higher = stronger interaction
B1: RLIM RING domain (UniProt Q9NVW2); chain SFGENDALKTCSVCITEYTEGNKLRKLPCSHEYHVHCIDRWLSENSTCPICRRAVLASGNRE
B2: TRIM37 RING domain (UniProt O94972); chain SVESIAEVFRCFICMEKLRDARLCPHCSKLCCFSCIRRWLTEQRAQCPHCRAPLQLRELVN
B3: RNF183 RING domain (UniProt Q96D59); chain EQQGRELEAECPVCWNPFNNTFHTPKMLDCCHSFCVECLAHLSLVTPARRRLLCPLCRQPTVLASGQP
B4: RNF122 RING domain (UniProt Q9H9V4); chain AKKLQLYGQTCAVCLEDFKGKDELGVLPCQHAFHRKCLVKWLEVRCVCPMCNKPIASPSEAT
B5: ANAPC11 RING domain (UniProt Q9NYG5); chain GICRMAFNGCCPDCKVPGDDCPLVWGQCSHCFHMHCILKWLHAQQVQQHCPMCRQEWKFKE
B6: RNF166 RING domain (UniProt Q96A37); chain GDSGLEAQYTCPICLEVYHRPVAIGSCGHTFCGECLQPCLQVPSPLCPLCRLPFDPKKVDK
B7: DEF8 RING domain (UniProt Q6ZN54); chain AGRLGCSLTEIHTLFAKHIKLDCERCQAKGFVCELCREGDVLFPFDSHTSVCADCSAVFHRDCYYDNSTTCPKCARLSLRK
B8: TRIM26 RING domain (UniProt Q12899); chain PLRSLEEEVTCSICLDYLRDPVTIDCGHVFCRSCTTDVRPISGSRPVCPLCKKPFKKENIRP
B9: TRIM54 RING domain (UniProt Q9BYV2); chain SMDNLEKQLICPICLEMFSKPVVILPCQHNLCRKCANDVFQASNPLWQSRGSTTVSSGGRFRCPSCRHEVVLDRHGV
B10: MKRN2 RING domain (UniProt Q9H000); chain FAFQASQDKVCSICMEVILEKASASERRFGILSNCNHTYCLSCIRQWRCAKQFENPIIKSCPECRVISEFVIPSV
B11: TRIM22 RING domain (UniProt Q8IYM9); chain VKVDIEKEVTCPICLELLTEPLSLDCGHSFCQACITAKIKESVIISRGESSCPVCQTRFQPGNLRP
B12: TRIM60 RING domain (UniProt Q495X7); chain ALVNLQEESSCPICLEYLKDPVTINCGHNFCRSCLSVSWKDLDDTFPCPVCRFCFPYKSFRR
Molecule	lacZ reporter activity
B1 (RLIM RING domain)	0
B2 (TRIM37 RING domain)	0
B3 (RNF183 RING domain)	0
B4 (RNF122 RING domain)	0
LGTKLEAKYLCSACRNVLRRPFQAQCGHRYCSFCLASILSSGPQNCAACVHEGIYEEGIS (TRAF2 RING domain (UniProt Q12933))	0
B5 (ANAPC11 RING domain)	0
RYRQMEERITCPICIDSHIRLVFQCGHGACAPCGSALSACPICRQPIRDRIQIF (MIB2 RING domain (UniProt Q96AX9))	0
AEADPLGRFTCPVCLEVYEKPVQVPCGHVFCSACLQECLKPKKPVCGVCRSALAPGVRAV (RNF114 RING domain (UniProt Q9Y508))	0
B6 (RNF166 RING domain)	0
QVQSRTKIEECVVCSDKKAAVLFQPCGHMCACENCANLMKKCVQCRAVVERRVPFI (MIB1 RING domain (UniProt Q86YT6))	0
MNDVLENELQCIICSEYFIEAVTLNCAHSFCSYCINEWMKRKIECPICRKDIKSKTYSL (RNF8 RING domain (UniProt O76064))	0
PEELAVNNDDCAICWDSMQAARKLPCGHLFHNSCLRSWLEQDTSCPTCRMSLNIADNNR (AMFR RING domain (UniProt Q9UKV5))	0
B7 (DEF8 RING domain)	0
B8 (TRIM26 RING domain)	0
B9 (TRIM54 RING domain)	0
B10 (MKRN2 RING domain)	0
B11 (TRIM22 RING domain)	0
B12 (TRIM60 RING domain)	0

Series 4
Target: FOXO3, forkhead domain (mouse, UniProt Q9WVH4, residues 31-263)
Chain of UniProt Q9WVH4 (31-263, looked up): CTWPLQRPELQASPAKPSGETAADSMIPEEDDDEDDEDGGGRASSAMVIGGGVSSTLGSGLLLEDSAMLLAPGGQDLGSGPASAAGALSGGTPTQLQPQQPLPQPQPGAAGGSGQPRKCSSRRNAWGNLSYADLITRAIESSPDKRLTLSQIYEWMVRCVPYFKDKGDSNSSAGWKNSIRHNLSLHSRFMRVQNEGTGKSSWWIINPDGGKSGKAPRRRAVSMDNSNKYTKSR
Method: protein-binding microarray
Form: hairpin DNA
Matrix: in vitro
Tested at: not given
Setting: whole hairpin DNA, median over replicate spots
Relative to: not given
Reading: higher = stronger binding
Constant ends, left off below: GAGGCCA … TGGCCTCACACTC
Strand	median fluorescence
CGTAAACAACGCCTCCTGGCGTTGTTTACG (5mC at 8)	5520 a.u.
TGTAAACAATGCCTCCTGGCATTGTTTACA	5320 a.u.
TGCACGCAACGCCTCCTGGCGTTGCGTGCA (5mC at 12)	4750 a.u.
TGTCGCCAACGCCTCCTGGCGTTGGCGACA (5mC at 33)	4760 a.u.
TGTAAACAAAGCCTCCTGGCTTTGTTTACA	5290 a.u.
TGTTAACAACGCCTCCTGGCGTTGTTAACA	3760 a.u.
TGTAACCGACGCCTCCTGGCGTCGGTTACA (5mC at 14 30)	4160 a.u.
TGTAAGCAACGCCTCCTGGCGTTGCTTACA	4360 a.u.

A few entries again (series 1):
Change	normalised enrichment score
V3W	5.24
F8N	0.305
V3Y	6.74
